Measurements collected from several papers.
Numbered parts are unrelated; each lists some results of a single study. Positions count from the first letter of the parent shown.

Set 1 — target: CCNA2, cyclin fold, Cln2 fusion (human); technique: yeast growth competition, sequencing; sample: yeast; setting: strong parent motif; relative to: not given; direction: higher = stronger binding; endpoint: normalised enrichment score
Parent: CDC6 docking peptide (human); TLKGRRLVFDNQL; partner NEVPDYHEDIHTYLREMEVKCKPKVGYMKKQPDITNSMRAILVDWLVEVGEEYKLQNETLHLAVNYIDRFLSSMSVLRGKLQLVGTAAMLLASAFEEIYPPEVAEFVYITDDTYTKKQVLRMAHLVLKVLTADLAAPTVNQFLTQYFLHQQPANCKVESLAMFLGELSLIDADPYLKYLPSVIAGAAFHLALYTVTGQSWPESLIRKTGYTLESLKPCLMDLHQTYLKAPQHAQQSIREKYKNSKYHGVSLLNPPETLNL
TLRGRRLVFDNQL [K3R]: 2.93
TLKGRHLVFDNQL [R6H]: 0.311
TLKGRRLQFDNQL [V8Q]: 2.04
TLKGRRLVFDNQK [L13K]: 2.24
TLKGRRLVFVNQL [D10V]: 1.25
TLKGRRFVFDNQL [L7F]: 0.618
DLKGRRLVFDNQL [T1D]: 1.33
TLKGRRLPFDNQL [V8P]: 0.415
TLKGRRLVCDNQL [F9C]: 0.324

Set 2 — target: UBE2B UBC core domain (UniProt P63146); technique: yeast two-hybrid; sample: yeast; setting: mostly zero background; relative to: not given; direction: higher = stronger interaction; endpoint: lacZ reporter activity
UniProt P63146, sequence (whole entry, looked up): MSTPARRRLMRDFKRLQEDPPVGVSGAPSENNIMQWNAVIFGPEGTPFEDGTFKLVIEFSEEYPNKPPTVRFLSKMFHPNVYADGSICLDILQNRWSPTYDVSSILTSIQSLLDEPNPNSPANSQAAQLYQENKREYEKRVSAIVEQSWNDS
B1: ZMIZ2 RING domain (UniProt Q8NF64); chain GTIPGTPGPNGEDGVEQTAIKVSLKCPITFRRIQLPARGHDCRHIQCFDLESYLQLNCERGTWRCPVCNKTALLEGLEVDQYMLGILIYIQNSDYEEITIDPTCSWK
B2: UBOX5 RING domain (UniProt O94941); chain EQPGSILGPECASCKRVFSPYFKKEPVYQLPCGHLLCRPCLGEKQRSLPMTCTACQRPVASQDVLR
B3: SH3RF1 RING domain (UniProt Q7Z6J0); chain DESALLDLLECPVCLERLDASAKVLPCQHTFCKRCLLGIVGSRNELRCPECRTLVGSGVEEL
B4: MAP3K1 RING domain (UniProt Q13233); chain NSIKDEEEQMCPICLLGMLDEESLTVCEDGCRNKLHHHCMSIWAEECRRNREPLICPLCRSKWRSHDFYS
B5: MDM4 RING domain (UniProt O15151); chain MEDCQNLLKPCSLCEKRPRDGNIIHGRTGHLVTCFHCARRLKKAGASCPICKKEIQLVIKVF
B6: RNF121 RING domain (UniProt Q9H920); chain MPTKHLSDSVCAVCGQQIFVDVSEEGIIENTYRLSCNHVFHEFCIRGWCIVGKKQTCPYCKEKVDLKRMFS
B7: SYTL4 RING domain (UniProt Q96C24); chain RGSQHYSDRTCARCQESLGRLSPKTNTCRGCNHLVCRDCRIQESNGTWRCKVCAKEIELKKAT
B1 (ZMIZ2 RING domain): 0
AMYLQENGIDCPKCKFSYALARGGCMHFHCTQCRHQFCSGCYNAFYAKNKC (RNF31 RING domain (UniProt Q96EP0)): 0
B2 (UBOX5 RING domain): 0
GSRLQEINDVCAICYHEFTTSARITPCNHYFHALCLRKWLYIQDTCPMCHQKVYIEDDIK (RNF139 RING domain (UniProt Q8WU17)): 0
B3 (SH3RF1 RING domain): 0
B4 (MAP3K1 RING domain): 0
YQNEVDDDLVCHICLQPLLQPLDTPCGHTFCYKCLRNFLQEKDFCPLDRKRLHFKLCKK (LNX2 RING domain (UniProt Q8N448)): 0
B5 (MDM4 RING domain): 0
B6 (RNF121 RING domain): 0
B7 (SYTL4 RING domain): 0

Set 3 — technique: protein-binding microarray; molecule type: double-stranded DNA, one strand shown; sample: in vitro; concentration: 250 nM; setting: 60-bp whole probe; with: salmon DNA 0.4 mg/ml; relative to: random background probes; direction: higher = stronger binding; endpoint: log fluorescence; constant ends, left off below: GCCTAGCAC … GTCTTGATTCGCTTGACGCTGCTG
Target: Interferon regulatory factor 7, full length, phosphomimetic (IRF7, Homo sapiens, UniProt Q92985, residues 1-503, S101K/S471D/S472D/S475D/S476D/S477D/S483D/S484D/S487D)
Residues (chain): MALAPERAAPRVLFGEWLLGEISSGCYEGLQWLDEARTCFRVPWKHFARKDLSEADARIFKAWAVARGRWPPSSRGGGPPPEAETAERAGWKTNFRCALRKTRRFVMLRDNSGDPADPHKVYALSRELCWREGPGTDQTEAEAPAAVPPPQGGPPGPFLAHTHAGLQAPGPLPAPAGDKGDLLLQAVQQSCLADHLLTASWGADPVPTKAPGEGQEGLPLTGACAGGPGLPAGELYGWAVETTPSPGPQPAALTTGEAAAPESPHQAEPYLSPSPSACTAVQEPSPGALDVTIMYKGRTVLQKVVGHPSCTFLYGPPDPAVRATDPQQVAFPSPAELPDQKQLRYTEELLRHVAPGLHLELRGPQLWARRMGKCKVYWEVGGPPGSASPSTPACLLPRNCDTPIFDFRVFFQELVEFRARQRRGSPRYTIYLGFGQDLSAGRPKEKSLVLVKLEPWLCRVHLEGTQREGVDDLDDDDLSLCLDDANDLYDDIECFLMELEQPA
TGAGATTCCAGTTTCGATTAGTGCTAG: 9.69 z-score
GGGCCGAGGCTGTGGCCACCGTGCTAG: -0.786 z-score
TCAAGAATCCCCTTCTAACTGTGCTAG: 0.00468 z-score
TCAATCCTTCATTTGAAACTGTGCTAG: 0.46 z-score
GATGGTATCCTTTTCCTGACGTGCTAG: 0.887 z-score
GCCGGTATCGACACTGGGGACGTGCTA: -0.27 z-score
TTAGGACTGCGTTTCGGTTAGTGCTAG: 2.45 z-score
GACGATATCAGTTGCGAGACGTGCTAG: -0.164 z-score
TTAGGTCTCGGTCTCGCTTAGTGCTAG: 2.08 z-score
GACGGGTCCGGTTTCGGGACGTGCTAG: 4.42 z-score
TTATGGTGTGGAGAAGGCACGTGCTAG: -0.953 z-score
TTAGATTTCAGTTTCGATTGGTGCTAG: 10.4 z-score

Set 4 — technique: protein-binding microarray; molecule type: double-stranded DNA, one strand shown; sample: in vitro; concentration: not given; direction: higher = stronger binding; endpoint: E-score
Target: Protein max, full length (MAX, Homo sapiens, UniProt P61244-2, residues 1-151)
Setting: k-mer, scored over probes, only values ≥0.25
ACCACCTG: 0.424
CGTGAACC: 0.255
CGTGGCTA: 0.402
AAACGCGT: 0.259
ACAACATG: 0.355
ACCATGGG: 0.321
CGTGGTAC: 0.372
ATGAGGCA: 0.283
ATGGCGTG: 0.371
CTCCACGA: 0.266
ACGCTGCT: 0.284

Set 5 — technique: universal PBM; molecule type: double-stranded DNA, one strand shown; sample: in vitro; concentration: not given; direction: higher = stronger binding; endpoint: E-score
Target: Sal-like protein 4, full length isoform B (SALL4, Homo sapiens, UniProt Q9UJQ4-2, residues 1-616)
Setting: 8-mer, flanks averaged, mean of replicates
TTATTGAA: 0.397
ACGGCGTC: -0.251
GCTCCAGA: -0.204
GTGACACA: 0.0704
ACAACGTA: 0.0481
AGGTAGTG: -0.0274
AGACTCTC: -0.173
AAGATAGG: 0.088
ACATACTG: -0.00527
CTTCGAAC: -0.274
ATAGGCTA: 0.17
CAGGGCTA: -0.193
ACCGATAT: 0.142
AGGCAGTA: -0.0203
CACTAAAC: 0.112
GAGATCAC: -0.179
GACGAGCC: -0.297
CTGAGACA: -0.104
ACCGATAC: 0.0877
ATCTCCCG: -0.149
AGAAATCT: 0.232
AAAAATGT: 0.22
AGCTTTAC: 0.0273
CACGGCGG: -0.227

Set 6 — technique: RNA Bind-n-Seq; molecule type: RNA; sample: in vitro; concentration: 1 µM; setting: whole 134-nt RNA, ends assumed; with: 150 mM KCl; relative to: input library; direction: higher = stronger binding; endpoint: log2 enrichment
Target: Ras GTPase-activating protein-binding protein 1, RRM domain (G3BP1, Homo sapiens, UniProt Q13283)
UniProt Q13283, sequence (whole entry, looked up): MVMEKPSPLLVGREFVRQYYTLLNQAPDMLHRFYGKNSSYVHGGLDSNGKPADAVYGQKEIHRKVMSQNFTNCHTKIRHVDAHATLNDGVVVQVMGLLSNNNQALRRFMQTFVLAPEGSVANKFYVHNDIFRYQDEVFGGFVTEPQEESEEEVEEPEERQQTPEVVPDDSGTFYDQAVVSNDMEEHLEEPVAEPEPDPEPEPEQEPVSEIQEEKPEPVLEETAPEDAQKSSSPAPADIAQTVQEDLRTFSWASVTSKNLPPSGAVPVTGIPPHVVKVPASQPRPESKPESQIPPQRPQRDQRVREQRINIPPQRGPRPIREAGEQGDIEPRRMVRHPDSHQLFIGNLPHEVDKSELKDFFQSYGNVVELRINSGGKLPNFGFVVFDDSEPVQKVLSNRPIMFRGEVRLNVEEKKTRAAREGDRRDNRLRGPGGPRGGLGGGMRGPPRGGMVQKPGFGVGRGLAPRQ
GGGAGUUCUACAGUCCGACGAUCUUCCUCAAGUCCUGUGCUACACAUCGUAUGUACCGAAUCGGGAGGAGGAGGAAAGUAUUAUGUUACGCCGUUCGGAUCUGCACUUCCAGCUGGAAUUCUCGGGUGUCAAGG: -0.24
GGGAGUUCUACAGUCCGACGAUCAGUCCUGUGCUACACAUCGUAUGUACCGAAUCAAAUUUAAAUUUUUUUAAACCCAAAAAAGUAUUAUGUUACGCCGUUCGGAUCUGCACUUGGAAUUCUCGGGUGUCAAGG: -1.57
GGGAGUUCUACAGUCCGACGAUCUGGCCCUGGUGGCAUGCGGGGAGGAAGAGGUGGCCUCAUGGAUCGUGGUGGUCCCGGUGGAAUGUUCAGAGGUGGCCGUGGUGGAGAAAGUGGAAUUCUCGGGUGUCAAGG: 1.47
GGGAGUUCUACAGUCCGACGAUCAGUCCUGUGCUACACAUCGUAUGUACCGAAUCAAACCCAAACCCCCAAACCCCCAAAAAAGUAUUAUGUUACGCCGUUCGGAUCUGCACUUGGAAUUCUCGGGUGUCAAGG: -0.128
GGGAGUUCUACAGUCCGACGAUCACCAUGCAGGUGGGCAUCUUUGGGAAGUGGGGCAAGGGGGGGAUAGGGAGGGGAGUAACACUUUGGGAACAGGUGGUCCCAGGUCGUUUCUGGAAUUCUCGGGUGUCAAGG: 0.718
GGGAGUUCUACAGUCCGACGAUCACCAUGCACGUGGGCAUCUUUGGGAAGUGGGGCAAGGGGGGGAUAGGGAGGGGGGUAACACUUUGGGAACAGGUGGUCCCAGGUCGUUUCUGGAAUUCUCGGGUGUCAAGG: -0.559
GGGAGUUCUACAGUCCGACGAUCAGUCCUGUGCUACACAUCGUAUGUACCGAAUCAAAUUUUUUUAAACCCAAACCCAAAAAAGUAUUAUGUUACGCCGUUCGGAUCUGCACUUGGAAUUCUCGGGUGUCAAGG: -0.949
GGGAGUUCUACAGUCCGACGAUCCCUGUGCUACACAUCGUAUGUACCGAAUCGGGGCCCCCCGGGGCCCCCCGGCCCCCCGGGAAAGUAUUAUGUUACGCCGUUCGGAUCUGCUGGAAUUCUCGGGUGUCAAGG: -0.616
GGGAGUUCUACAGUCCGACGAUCCAAGUCCUGUGCUACACAUCGUAUGUACCGAAUCGGGUUUUGGUUUUGGUUUUGGGAAAGUAUUAUGUUACGCCGUUCGGAUCUGCACUUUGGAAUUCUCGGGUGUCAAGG: -0.386
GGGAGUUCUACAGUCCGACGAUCACCAUGCAGGUGGGCAUCUUUGGGAAGUGGGGCAAGGGGGGGAUAGGGAGGGGGGUAACACUAUGGGAACAGGUGGUCCCAGGUCGUUUCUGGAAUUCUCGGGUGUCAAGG: 0.968
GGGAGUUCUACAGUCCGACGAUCCCUCAAGUCCUGUGCUACACAUCGUAUGUACCGAAUCGGGAGGGUGGGAGGGAAAGUAUUAUGUUACGCCGUUCGGAUCUGCACUUCCAGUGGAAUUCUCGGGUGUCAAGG: 0.887
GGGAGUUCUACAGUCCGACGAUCCUCAAGUCCUGUGCUACACAUCGUAUGUACCGAAUCGGGUUGGGUUGGGUUGGGAAAGUAUUAUGUUACGCCGUUCGGAUCUGCACUUCCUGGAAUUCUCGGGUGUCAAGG: 0.863
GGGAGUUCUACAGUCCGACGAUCCCUCAAGUCCUGUGCUACACAUCGUAUGUACCGAAUCGGUUGGGUUGGUUGGAAAGUAUUAUGUUACGCCGUUCGGAUCUGCACUUCCAGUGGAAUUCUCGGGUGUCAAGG: -0.245

A few entries again (set 6):
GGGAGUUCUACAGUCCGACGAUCAGUCCUGUGCUACACAUCGUAUGUACCGAAUCAAACCCAAACCCCCAAACCCCCAAAAAAGUAUUAUGUUACGCCGUUCGGAUCUGCACUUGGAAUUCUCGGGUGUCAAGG: -0.128
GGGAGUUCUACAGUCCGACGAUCACCAUGCAGGUGGGCAUCUUUGGGAAGUGGGGCAAGGGGGGGAUAGGGAGGGGAGUAACACUUUGGGAACAGGUGGUCCCAGGUCGUUUCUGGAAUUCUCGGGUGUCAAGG: 0.718
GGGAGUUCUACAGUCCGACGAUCACCAUGCACGUGGGCAUCUUUGGGAAGUGGGGCAAGGGGGGGAUAGGGAGGGGGGUAACACUUUGGGAACAGGUGGUCCCAGGUCGUUUCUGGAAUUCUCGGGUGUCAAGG: -0.559
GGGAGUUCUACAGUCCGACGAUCAGUCCUGUGCUACACAUCGUAUGUACCGAAUCAAAUUUUUUUAAACCCAAACCCAAAAAAGUAUUAUGUUACGCCGUUCGGAUCUGCACUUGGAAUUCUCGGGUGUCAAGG: -0.949
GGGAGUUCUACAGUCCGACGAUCCCUGUGCUACACAUCGUAUGUACCGAAUCGGGGCCCCCCGGGGCCCCCCGGCCCCCCGGGAAAGUAUUAUGUUACGCCGUUCGGAUCUGCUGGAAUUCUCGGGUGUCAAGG: -0.616
